Measurements of several laboratories.
Parts stem from different laboratories: compare values within a part only.

Block 1 — technique: universal PBM; molecule type: double-stranded DNA, one strand shown; medium: in vitro; tested at: not given; direction: higher = stronger binding
Target: Sal-like protein 4, full length isoform B (SALL4, Homo sapiens, UniProt Q9UJQ4-2, residues 1-616)
Notes: 8-mer, flanks averaged, mean of replicates
Construct (chain): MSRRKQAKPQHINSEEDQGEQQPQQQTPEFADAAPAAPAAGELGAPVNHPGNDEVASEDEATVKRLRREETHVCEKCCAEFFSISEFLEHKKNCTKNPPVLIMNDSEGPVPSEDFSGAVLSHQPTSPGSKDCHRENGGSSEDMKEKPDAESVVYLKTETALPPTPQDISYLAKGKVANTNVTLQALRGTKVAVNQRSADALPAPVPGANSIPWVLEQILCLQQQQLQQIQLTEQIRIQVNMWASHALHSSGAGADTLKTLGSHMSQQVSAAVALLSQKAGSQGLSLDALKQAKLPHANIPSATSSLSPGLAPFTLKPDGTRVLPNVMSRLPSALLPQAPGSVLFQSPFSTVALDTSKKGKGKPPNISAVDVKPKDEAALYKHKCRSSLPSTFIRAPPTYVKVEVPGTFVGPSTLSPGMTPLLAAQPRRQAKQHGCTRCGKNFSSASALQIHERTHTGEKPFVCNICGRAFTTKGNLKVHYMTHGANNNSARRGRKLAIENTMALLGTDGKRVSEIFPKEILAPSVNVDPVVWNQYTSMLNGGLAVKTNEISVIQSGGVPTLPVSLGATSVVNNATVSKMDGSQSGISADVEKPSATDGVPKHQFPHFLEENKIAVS
Sequence	E-score
AATGTCAT	0.184
ATCATCTA	0.179
AGTCAGCC	-0.179
ATCTCATC	0.0591
CGGAGAAC	-0.129
ACATTTGC	0.0991
AATTCAGA	0.134
ATAATCCC	0.21
GAAAGGGC	-0.0755
AAAAGAGT	0.035
GGAGGACA	-0.00351
ATGAAAAT	0.4
ACACTACG	-0.0253
CACAAGTC	0.0279
AGATTGAG	0.107
ACCCTCGA	-0.161
GCAGACGC	-0.273
CTGAGCAG	-0.0661
ACACTGGA	0.0226
CCCGTTTA	0.114
CGGGCGTA	-0.274
AATCGACG	0.0186
CGAAATCC	-0.0128
CTCCCAGA	-0.108
GGCGTAAC	-0.0841

Block 2 — technique: RNA Bind-n-Seq; molecule type: RNA; medium: in vitro; tested at: 100 nM; reference: input RNA pool; direction: higher = stronger binding
Target: RING finger protein unkempt homolog, zinc fingers 1-6, SBP tag (UNK, Homo sapiens, UniProt Q9C0B0, residues 30-357)
Sequence of UniProt Q9C0B0 (30-357, looked up): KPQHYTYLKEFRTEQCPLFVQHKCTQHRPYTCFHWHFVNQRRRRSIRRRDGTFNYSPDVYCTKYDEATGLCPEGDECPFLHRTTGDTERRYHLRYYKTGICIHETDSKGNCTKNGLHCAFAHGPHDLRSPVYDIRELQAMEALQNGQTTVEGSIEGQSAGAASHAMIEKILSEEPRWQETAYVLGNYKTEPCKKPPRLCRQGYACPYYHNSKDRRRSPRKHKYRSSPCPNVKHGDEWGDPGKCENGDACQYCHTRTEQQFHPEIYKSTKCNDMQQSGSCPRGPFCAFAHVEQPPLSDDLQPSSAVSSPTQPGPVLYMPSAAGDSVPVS
Notes: RNA with constant flanks, vertebrate orthologous sites, ends assumed
All sequences stand within: GGGAGUUCUACAGUCCGACGAUC … CAACAGAGGAUUGAGCAUCA
Sequence	bound/input enrichment [ratio]
GGGGUGGGGCCAGUGGGGGAAUUCCCUGCCUUGGCCUCGCUUCUCCCUGCCACCUGCCCCUAGUUAUUUUUUUUUUAACCACCAUGUGAUUAAGGUCGGGUAUUACCUCCCCUGACCUGC	2.58
GUCGUCUGACUGGAUGAAGACUGUCCCGAGUUAUAACCAAACUAAUAGCUCCAUGGACUUCAGAAAUUAUAUGAUGAGAGAUGAGAAUCUGGAACCACUGCCCAAAAACUGGGAGAUGGC	0.353
GUCGUCUGAUUGGAUGAAGACUGUCCCGAGUUAUAACCAAACUAAUAGCUCCAUGGACUUCAGAAAUUAUAUGAUGAGAGAUGAGAAUCUGGAACCACUGCCCAAAAACUGGGAGAUGGC	0.352
GCAAAUCCAAUCACUGUGAUAUUUAAAAUAUGCACAGUCCUGAUUCUUUCUCCAUGAUCCUAGUAUUUUUCUAGCUGUAUCUUUGUAUCUCAUACUGUUAUUUAUCAGUUUUGUUCCCCU	0.654
AUAUUCACUCAAUUGAAAUUAUUUAGAUAAGAGAAAUUAUUGUUUAUGUUUUCUUUCAAGGAGUUUAUCCUAUUUUUAUCCAUUUGCAAAUGCCGGUUUUGCGUGGUUUCUUAUCAUAUC	0.759
CAGAGCAGCAUGGGCUGUUGAGCUGUGGAAAAAUGAGCUUUGCAUUUUUGUAUAUUUAAAUAGGAUACUUUUAUAUGAUGGGUGCUUCGAGUGUGAAUGCAGCAGGUUCUCCUUUUCAGA	1.4
UUCUAGUACUUAAGCCAACAGUUCUAAAAUGCUAUUUAUUUGUGUCUGUAAGAUUGUACAUAUACUACCAACCUCAUACUGUUGUGGAUUUUUUUCUCACAAGCUUGAGUUUAGGUUUUU	0.412
GUAUUCGUUCCAUACCAGCAUAUAACCUCUCGUUUGUGCACAGCUUCAAAUGUUACCGUCUAGUAAGAUUUUUAUUUAAAAUAUGAAAACUGCUUUUCCAAGACGUUUUUAAAAACAAAG	0.488
CCUUCCUUCCUUCCUUCUUCCCUCCCUCCCUUCAUUUCUUUCAUUUUUUUACAUUUUGUAUAGAAACAAAUUCAUUUAAACGAACUUAUUAUUAUUAUUUUUUACAAAAUAUAUAUAUAG	1.17
CAACACACAGGGUUUACGAACUGGUCUUACAAAUGUGGCCAACAGAUAUGGAACUUACACUCCAGGACAAUUCACCCAGUUCAAGCAAUGACAGUAUCUCCAUUUUAAUAAAUUUGUAUU	0.651
GGUUUUUUUUUUUUAGAUAUCAUUGCCCAGUGCCUAAGAUCUUUUAUGUUCAGCUGACUGUAGGAAAUAAUGAAUUUUUUGGUGAAGGAAAGACUCGACAAGCUGCAAGACACAACGCUG	1.52

Block 3 — technique: RNA Bind-n-Seq; molecule type: RNA; medium: in vitro; tested at: 365 nM; reference: no-protein control; direction: higher = stronger binding
Target: RNA binding protein fox-1 homolog 2, RRM domain, GST-SBP tag (RBFOX2, Homo sapiens, UniProt O43251-10, residues 100-194)
Notes: natural RNA segment, single round, ends assumed
All sequences stand within: GGGAGUUCUACAGUCCGACGAUC … UGGAAUUCUCGGGUGCCAA
Residues (chain): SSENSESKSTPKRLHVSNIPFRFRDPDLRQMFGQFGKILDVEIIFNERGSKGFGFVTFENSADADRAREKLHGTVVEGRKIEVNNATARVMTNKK
Sequence	RBNS enrichment (R)
CAGUGUGACUUGUCCUGAUCAGGUAGAGAGAGCUUGUGGUCAUAUUCCCCAAUGGGCAUGCCUGUGGGAUGUGGGGAGGGGCAGAGAGGCAGAAUUCCACCUGUUCGUUG	6.95
CCAGAGUGUUCUCAGUAUGUCAGAGAAAGUGCCACAGCAUUAGGACGGGAGCUUGGAGAACGUUUUCUAGAAAAGGGUUAGCUUCCUGUUGGCAUGAAAUUUUCCAAGCA	4.05
AUGCACCUUGAGAUAAUUUAGUGUUUUUAACUGGUACAUAAUUUAUCAAGCAGUACAUGAAAGUGUAAUAAUAAAAUGUCUAUGUAUCUUUAGUUACAUUCAGAUUUGUA	0.646
UGCUCCAGAGUGUCCCAGCCAACCCUCGGAAGAUGGGAUUGCCAGUCAGCCCUGCCUCACCAUGCCUGCAGGAGGCUGUCCAGGGAGCAGGUCUGUGUGCCCAUCAGCAG	0.697
AGCCACCACUGUGCUCGCUCCAACUGCGGGUAGCACAGGAGAGGAGGGACGGAUAAGGGCAGAUGUCAGCAAUACUAAGGGCUUCCUCCUGGGAGGGAAUGAGGUUCCAC	0.431
GCAGUCAGGGCACCUGGAUUGUUCUGUUAUCGAUAUUGUUUCUUGUAGCGGCCUGUUGUGCAUGCCACCAUGCUGCUGGCCCGGGGGGAUUUGCUCUGAGUCUCCGGUGC	4.37
AAAACAGGACAAAGAGCUCUGCAGCAUCCUCAUGCCCUAUUACAUUCUCAGCCCAGUGGGCCUCAGCUGCCUUUGGUAGGUUCCAUCCCUUAGCCAUUCCCACCCAUCUG	0.934
GCACUUGUAAACAUACGACAUGAUGUUAAAAUUGAAAGCAGGACUGAACUAACGUAUUCAAUAUUGAAUAUGUAGAUAUCAGUAGUCAAGUAGGAUAUUUCUUUAGAUUG	0.409
GGUCCAUGGGAAUGGACAUGAAGAGGAUUUCACAGUAUGUAGAGCAGAAGGCACGUGAAUGUGUUUGCUUUGGCUUGGAGCUUAUUAAGUUUUGACUACGGUUAAAAUAA	0.931
AUCUCAUAUUAGGAUUUUCUGUCCUUAAUUUUUUGAGCAAAAUCUGGAAAAUGUGAAAGCAUAUUUAGAUUUUAUAUACUAUCUGAAAUGUGAUUUGUUAAGAUUCUUAA	0.3
UAAUACUAAACCGUUGAGUUUCUAAAUAUUUAUUUAUUCUAACAAAAAGCAAUUACUACAAAUGGAUGACACAUUUAAUGAACACAAUUUUAUUUUUUUUCUGUAACUGU	0.492
UUAAGAUCUUACUGCUUUAUAAAGUGCUUUAUGAAUUAUAGGAAAAUAAACACAUUUUAGAUCUUAGAAAAAAACAAAAAAACAUGGGCUUGUCUUCAGGGUAGUAAAGA	1.6

Block 4 — technique: aptamer microarray, sandwich; molecule type: DNA with 2'F-ANA; medium: in vitro; tested at: 200 nM; with: Cy3 exosite-II aptamer, 400 nM; direction: higher = stronger binding; sequence: GGTTGGTGTGGTTGG
Target: Prothrombin, mature alpha-thrombin (F2, Homo sapiens, UniProt P00734)
Notes: whole 15-mer aptamer, many near background
Modification	mean fluorescence intensity [a.u.]
2'F-ANA at 2 3 5 7 8 9 10 11 14	50.7
2'F-ANA at 1 2 6 7 9 10 11 12 13 14 15	48.3
2'F-ANA at 3 5 6 9 13 14 15	69.3
2'F-ANA at 1 3 5 6 7 8 9 11 13 15	120
2'F-ANA at 1 3 4 5 6 11 12 15	97
2'F-ANA at 2 4 8 9 13 14 15	95.3
2'F-ANA at 1 7 8 9 11 12 14	103
2'F-ANA at 1 3 4 5 8 10 11 13	134
2'F-ANA at 1 2 3 5 8 9 11 14	80.5
2'F-ANA at 1 2 7 8 9 11 12 14	65.7
2'F-ANA at 1 7 9 10 12	109
2'F-ANA at 4 6 10 11 15	87
2'F-ANA at 4 6 8 9 10 12 13 14	69.5
2'F-ANA at 1 3 4 5 7 9 12 15	115
2'F-ANA at 1 4 5 6 9 12 13 15	72
2'F-ANA at 1 3 4 9 10 12 13 15	74.6
2'F-ANA at 13 15	486
2'F-ANA at 3 5 11 15	105
2'F-ANA at 5 10 13 15	49.4

Block 5 — technique: protein binding microarray; molecule type: double-stranded DNA, one strand shown; medium: in vitro; tested at: not given; reference: not given; direction: higher = stronger binding
Target: Histone acetyltransferase KAT6A, both winged helices, GST fusion (KAT6A, Homo sapiens, UniProt Q92794, residues 1-181)
Notes: 8-mer, flanks averaged, mean of 2 arrays, mostly near background
Target sequence (chain): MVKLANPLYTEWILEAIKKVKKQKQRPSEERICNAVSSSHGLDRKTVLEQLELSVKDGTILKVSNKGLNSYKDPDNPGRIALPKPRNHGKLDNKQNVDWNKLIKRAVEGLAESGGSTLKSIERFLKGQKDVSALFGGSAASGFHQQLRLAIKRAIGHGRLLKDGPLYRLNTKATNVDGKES
Sequence	E-score
ATAAAGTA	-0.176
CAGACGTA	-0.0989
CATCGACG	0.0933
AGATAAAA	-0.0345
ATGCCCTA	-0.243
ATACATAT	0.029
CACCAATG	-0.071
CCAGAGTA	0.0212
CAACCAGA	-0.0977
CACCCAGC	-0.0663
GAAGAGTA	0.0652
ACTATAAG	-0.0864
AAGACAGT	-0.0889
GTCCAATA	0.119
GTAAGACA	-0.0158
CGGCAGGA	0.208

Some of these lines once more (block 5):
Sequence	E-score
GTAAGACA	-0.0158
ACTATAAG	-0.0864
CGGCAGGA	0.208
CCAGAGTA	0.0212
ATACATAT	0.029
CACCAATG	-0.071
GAAGAGTA	0.0652
GTCCAATA	0.119
ATAAAGTA	-0.176
CAACCAGA	-0.0977
CACCCAGC	-0.0663
